Measured values from different studies.
Every numbered part comes from another study and shows a few of its results, in no order.

Series 1
Target: Interferon regulatory factor 5, full length, phosphomimetic (IRF5, Homo sapiens, UniProt Q13568-2, residues 1-514, S451D/S453D/S456D/S462D)
Method: protein-binding microarray
Form: double-stranded DNA, one strand shown
Matrix: in vitro
Tested at: 940 nM top
Setting: 60-bp whole probe
Added: salmon DNA 0.4 mg/ml
Baseline: random background probes
Direction: higher = stronger binding
All sequences stand within: GCCTAGCAC … GTCTTGATTCGCTTGACGCTGCTG
Oligonucleotide | fitted relative affinity [z-score]
TTAGAACTGAGACGGGATTAGTGCTAG | -0.493
GACGGTCTCCTTTGCCTGACGTGCTAG | 0.268
TTAGAACTGAGTCCCGATTAGTGCTAG | -0.243
GTCGGTTTCGACTTTCGGGACGTGCTA | 9.11
TCATCTCTGCCACTCAGACTGTGCTAG | 0.698
TTAGGTGTCGGTTCCGGTTAGTGCTAG | 2.2
TTACGACTGGACTATCGGTTAGTGCTA | 0.393
GACGATTTCTGTTCCGAGACGTGCTAG | 1.26
TCATCTCTCTTTCCACTACTGTGCTAG | 2.3
TCATCTTTGCAGATAAAACTGTGCTAG | -0.0171
GCCAAAAGTGTAAATGTAAGGTGCTAG | -0.352
GACGGTATCGGTATTGGGACGTGCTAG | 7.69
GACGGTATTGGTATCGGGACGTGCTAG | 3.4
GACGGTTTCGGTCTAGGGACGTGCTAG | 13.9
GACGGACTGGGGTTTCGAGACGTGCTA | 2.12
GACGGTTTCCTTTTCCCGACGTGCTAG | 3.58
GATGATTTCGGGTTTCGAGACGTGCTA | 2.44
GACGGTATCCTACTGCTAACGTGCTAG | -0.354
TTAGAACTGGGGTTACGATTAGTGCTA | 0.136
TTAGGACTGGGTCTCGGGTAGTGCTAG | 0.135
TCACATCTGGGTATTTTACTGTGCTAG | 0.272
AACGGTTTCGGTTCCGGGACGTGCTAG | 12.7
GACGATATCTGGTTTCGAGACGTGCTA | 3.35
GACGATTTCACTTTCGAGACGTGCTAG | 2.92
GACGATTTCGGGGCTGGAGACGTGCTA | 0.347

Series 2
Target: RNA binding protein fox-1 homolog 2, RRM domain, GST-SBP tag (RBFOX2, Homo sapiens, UniProt O43251-10, residues 100-194)
Method: RNA Bind-n-Seq
Form: RNA
Matrix: in vitro
Tested at: 365 nM
Setting: natural RNA segment, single round, ends assumed
Baseline: no-protein control
Direction: higher = stronger binding
All sequences stand within: GGGAGUUCUACAGUCCGACGAUC … UGGAAUUCUCGGGUGCCAA
Construct (chain): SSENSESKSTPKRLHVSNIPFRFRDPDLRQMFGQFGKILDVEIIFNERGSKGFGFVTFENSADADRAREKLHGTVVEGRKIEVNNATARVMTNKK
Oligonucleotide | RBNS enrichment (R)
CCUUGCUAAAGAUUGAAGUAGGUUCUCUUAAAAGGUCUAUUGAUGGACAUGUCUGAGCAGAGAAACCGUGGAAUAGAAUAUGGUGCGUGGGCUGCUAACAGCAAGAGGGA | 0.967
GCAGCACAACCUGGAAAUGGUGGGCGAGAGUACCCGGCAGUGAUGCCCGCCGGCUCACCCUUCAGCUGCUGUCGGCCUCUGCUGCCCCUCCCCCAGCCCUUAGCACAGAG | 0.329
ACAAAAAUUAUGCAGAAAAAUUCAUUUGAAUAUCCAUCACUUAAAUGGUGACAAUAACAACUUCAGAGAUCUGUGAUGAUCAUUUAAAUGGAGUACUCAUCUUCUCAUAG | 0.471
AAGCUGACCAUGCAGCUCGCUGCUGGCCCCCAGUAAGCACCCCUUCCCACCGUCCACUCCCCGUCCCCGGGGGCCUGCCCUCAGUCUAAGCUUUGGAACACUCUCACCUC | 0.655
ACUAGGAGAGUGCAGAGCGCAGCAGAGCCUGCUCUCAUCCCUCUAUCCCCAGCCCAGUCUUCCUCCUCCAUCCUUAAGCAGUAUAAAUGCUAUGUGCCCUCUUCACUUAG | 0.483
CCAGCAGGAGAGCCAGCAGGGCAGCAGUAGAGGCCCCUCGUGGGCCCCUUUUCAUGUCCUGACCCAUGUCCUGCCAGUGUUCUUUCCAUGCUUUAAGUUGACUCUUUCUU | 0.161
CCACCACCUCUGACCUCCUUGCCCCAGACCUGCUGGAGCAAGGGGACUGGAGCCUGUCCCAGAACAAGAGCGCCCUGGACUGCCCUCAUCAGCACCUAGACGUACCGCAC | 0.318
AGCAUCUGAUAAACGCUGUGGAGACUUAGCCCAACACAAGCUCCAGUGUCUGUAGGAGUCGGCCUCACAAGCUGAUGAAGCAGCUGUACGCCUAGUAGAGCUCGGUGGUG | 0.322
UUUGUGGGCUGGAGUUACCAGUAGCUCCAGCAGUUACCCUGAAGAGAGAUUGGGCUUCAGCCUUCAGCAGGUGGUUCUCUCCCAUGCCUGGCCUUGGUGUGGAGGGGCUG | 0.277
CUCGAUUGCUUCAGCCUCACCGGGGCAUUGAAUCAUCAUUUGUUGAAUGGCAACAGGUUUGCUGGGGCAGAGGCACUGCCUAAGUGGGAGCAUGCACGUGAAAAUAGAAA | 7.87
CUUAGAAGGUAGGAUUUUCUUCCCAGGGACCUCCUAUCACCCUACCCUGCUUCUUGAGGUCCCUGGAGCCCCAGGUGGGCUGAGGGGCAGGGAGCCGGCUGUGCCCAGUA | 0.389
UCCUCCAGGACACCACAGUCCUUGCCCUACCACACCACAAGUAUUUGGGGGCUCAGCCCUGCCCGGUUAAGUUGACAUAUCAAGUUAACCCACUGAAGGGCUUCAGGUUU | 0.185

Series 3
Target: RING finger protein unkempt homolog, zinc fingers 1-6, SBP tag (UNK, Homo sapiens, UniProt Q9C0B0, residues 30-357)
Chain of UniProt Q9C0B0 (30-357, looked up): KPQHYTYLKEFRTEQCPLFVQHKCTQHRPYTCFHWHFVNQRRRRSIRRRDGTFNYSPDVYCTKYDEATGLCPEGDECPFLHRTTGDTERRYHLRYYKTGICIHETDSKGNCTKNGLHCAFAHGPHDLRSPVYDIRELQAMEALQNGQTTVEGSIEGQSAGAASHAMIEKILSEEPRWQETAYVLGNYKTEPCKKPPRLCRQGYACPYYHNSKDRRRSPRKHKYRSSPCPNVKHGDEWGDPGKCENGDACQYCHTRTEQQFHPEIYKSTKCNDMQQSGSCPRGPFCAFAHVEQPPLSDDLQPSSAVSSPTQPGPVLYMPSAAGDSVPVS
Method: RNA Bind-n-Seq
Form: RNA
Matrix: in vitro
Tested at: 100 nM
Setting: RNA with constant flanks, vertebrate orthologous sites, ends assumed
Baseline: input RNA pool
Direction: higher = stronger binding
All sequences stand within: GGGAGUUCUACAGUCCGACGAUC … CAACAGAGGAUUGAGCAUCA
Oligonucleotide | bound/input enrichment
GUCCCUGAGUGACAGCAUCCCAUCAGUGGCCGACUCCCACUGCAGCCAUUUCUCUGAAUUCAGCUGCUCCGAUAUGGAAAGCAUGAAAACAUCCUGCAGCCACGGCUCCAAUGACUACCA | 0.487 ratio
CAACUCCAUGGUUGAGGGCUCAGAACUCAGAAAGGUUCGCUCCAACUCUAGAAUUUACCAUAGGUAUUUUUUACUGGACGCUGACAUGCAGAGUCUGAGGUGGGAACCGUCGAAGAAGGA | 0.473 ratio
UAUCUUUAGGAUGAAGCUCUUACAUCAGGUGUCACAAGUCUGGAAAACAGAUGGGUUGAGCAGUUGUGAUUACAAAUUACUCUCUGUGGAUUACAAUCCUUUAUAUAUCAACAUCACAGU | 0.609 ratio
AGUAUCCCAGGUGUACCGUGUUGGGUUGGCAUUGUACAGAAAUUAACAGCCAUAUUGGUCUAGAAACGUUGGACGUAAUUUUCUCCAUUUGUACAGGGGUUACGCACUGUGUUAAAUACG | 0.563 ratio
CACAUCUGGUGAUAUUUGGCCUGGCCUUUCUGCUUACGAUAAUAGUCCCAGAUCACCCCAUAGUCCUUCACCUAUUGCUACACCACCUAGUCAGAGUUCAUCAUGCUCUGAUGCCCCCAU | 0.924 ratio
CAGUCCUUCCACUUAGAGUUAGCCACAAAUCUGUAGGAUUUAUGACAUAUAUAUCUAGUUGAGUUUAAUAUUUUUAUUAGCCUGUAAAUAAUGAUGGCAUCUUCUACAUUAAAGUAUUGA | 2.78 ratio
AGUAUCCCAGUUGUACCGUGUUGAGUUGGCAUUGUACAGAAAUUAACAGCCAUAUUGGUCUAGAAACGUUAAACUUAAUUUUUUUCCAUUUGUACAGGGGUAACGCACUGUAUUAAAUAU | 1.15 ratio
ACACUUACAUUGCGGCAUAUAGACGACAUGGAAGUAGACCAGCUCUGCUGAUCUGAAACUUAGAUUUUUUUAAUUAUGUACUGGGGACAGGUUUUUGUCGCUUUACAUUGCUUCCUAGUU | 5.56 ratio
UGCAUUAUUUGACAAGAGUCAAAGUGACAGAGUUUGAAGAUAUUAAAUCAGGUUACAGAAUAGAUUUUUAUUUCGAUGAAAACCCUCACUUCGAAGAUAAAGUUCUCUCCAAAGAAUUUC | 0.325 ratio
UAUCUUAAGGAUGAAACUCUUACACCAGGUGUCACGGGUCUGGAGAAGAGAUGGGUUGUCUAGCUGCUCUUAUAAAUUACUGUCGGUGGAAUACAAUCCUUUAUAUAUCAACAUCACAGU | 1 ratio
CUCUUAAUCCCAUCUCCUCUGUUUCAUAGUGCCGAAGUAUUCUCUUCAAGUUAAAUCUUUUUAGCGAACUUAUUCUAAUUCUAGAGAAACUUCCAAUGUGGAUACUGUGAGCUACAUGGA | 1.11 ratio

Series 4
Target: Histone acetyltransferase KAT6A, winged helix 2, GST fusion (KAT6A, Homo sapiens, UniProt Q92794, residues 85-181)
Method: protein binding microarray
Form: double-stranded DNA, one strand shown
Matrix: in vitro
Tested at: not given
Setting: 8-mer, flanks averaged, mean of 2 arrays, mostly near background
Baseline: not given
Direction: higher = stronger binding
Target sequence (chain): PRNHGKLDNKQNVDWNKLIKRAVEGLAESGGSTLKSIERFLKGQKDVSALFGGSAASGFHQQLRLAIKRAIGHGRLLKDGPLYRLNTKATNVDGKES
Oligonucleotide | E-score
CTGAGTGA | 0.0665
AATGCAAA | 0.127
TGCAACAA | 0.0708
AAGATACC | 0.0441
CGGAAAGA | 0.0748
AGCACCAA | -0.0244
CCTTGCGC | -0.118
GTCATCTA | -0.0387
ACACCTCG | -0.177
ACCTCCTG | -0.142
GACCGATC | -0.0567
ATAGCAAC | 0.0832
AACTAAAG | 0.0475
GACGATCC | 0.0182
ATGGCACA | -0.0383
GAGAGTGA | 0.0521

Series 5
Organism: Saccharomyces cerevisiae
Effect on: cell growth
Method: competitive growth deep sequencing
Form: peptide
Setting: peptide tiling library
Added: cyclin F-Cln2 fusion
Direction: direction not given
Molecule | enrichment score
GLPDFVFQQQPVESEA | 0.885
KPHVSDEEEEEPPFYH | 1.21
DTERAHSTLDEDLERW | -0.156
KPKPVKPVTFSTGIKM | 1.85
TARRIFQEPTEPKTKA | 1.36
IVLICAKRSLCAAFSV | -0.0762
VLVRTSACRSLFGPVD | 3.37
SSEVARHLLFQSHM | 2.28
SAVPLILPQAPSGPSY | 1.46

For quick reference, copied from above (series 1):
Oligonucleotide | fitted relative affinity [z-score]
GACGGACTGGGGTTTCGAGACGTGCTA | 2.12
GACGGTATCGGTATTGGGACGTGCTAG | 7.69
TCATCTTTGCAGATAAAACTGTGCTAG | -0.0171
GACGATTTCACTTTCGAGACGTGCTAG | 2.92
TTAGGACTGGGTCTCGGGTAGTGCTAG | 0.135
GATGATTTCGGGTTTCGAGACGTGCTA | 2.44
TTAGGTGTCGGTTCCGGTTAGTGCTAG | 2.2
